Measurements gathered from unrelated publications.
Each numbered part is a random draw from the data of one study; scales do not carry over between parts. Positions count from the first letter of the parent shown.

Sample 1 — method: RNAcompete; form: RNA; medium: in vitro; concentration: 20 nM; notes: 7-mer, probes averaged, single round; relative to: mean of 7-mers; direction: higher = stronger binding
Target: PABPC1L2, full length, GST fusion (mouse, UniProt A0ABA7IW68)
Target sequence (chain): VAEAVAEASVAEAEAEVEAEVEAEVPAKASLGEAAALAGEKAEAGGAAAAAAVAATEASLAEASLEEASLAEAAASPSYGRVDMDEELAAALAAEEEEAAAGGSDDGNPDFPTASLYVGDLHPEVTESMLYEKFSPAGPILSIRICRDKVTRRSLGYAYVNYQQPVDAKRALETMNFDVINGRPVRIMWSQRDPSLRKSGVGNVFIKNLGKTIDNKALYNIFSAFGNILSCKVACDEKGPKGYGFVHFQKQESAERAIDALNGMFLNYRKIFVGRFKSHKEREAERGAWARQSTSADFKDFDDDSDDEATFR
Oligonucleotide | 7-mer Z-score
GAAUGAG | -0.128
CUUUGCG | -0.411
GAGCAAA | 0.831
CGACUCG | -0.258
AGUUUCC | -0.373
UGACUUU | -0.3
GCAAGGU | -0.0428
GCACGCA | -0.05
AGAGGCC | -0.0627
GCGCUCC | -0.273
CCUCGUC | -0.483
AAGUGAU | -0.012

Sample 2 — method: DHFR PCA, deep sequencing; medium: yeast; together with: (+)-ABA 0.0091 µM; relative to: wild-type fitted maximum; direction: higher = stronger binding
Target: ABI1, truncated, D143A, DHFR fusion (Arabidopsis thaliana)
Notes: methotrexate growth selection, single substitutions
Starting sequence: PYL1, truncated, DHFR fusion (Arabidopsis thaliana); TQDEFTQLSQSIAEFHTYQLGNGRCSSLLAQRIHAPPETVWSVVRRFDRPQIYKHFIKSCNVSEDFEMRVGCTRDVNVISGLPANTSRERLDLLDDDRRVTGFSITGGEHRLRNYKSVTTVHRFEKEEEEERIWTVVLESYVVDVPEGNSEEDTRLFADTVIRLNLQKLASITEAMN; partner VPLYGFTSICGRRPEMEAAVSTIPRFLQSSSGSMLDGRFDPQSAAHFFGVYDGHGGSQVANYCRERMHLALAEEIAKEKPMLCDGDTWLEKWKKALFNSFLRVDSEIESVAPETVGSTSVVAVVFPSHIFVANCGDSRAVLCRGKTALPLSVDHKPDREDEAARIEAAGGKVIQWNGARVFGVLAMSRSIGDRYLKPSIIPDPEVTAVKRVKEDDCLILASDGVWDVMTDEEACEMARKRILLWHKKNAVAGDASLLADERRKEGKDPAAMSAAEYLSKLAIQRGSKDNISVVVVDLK
Substitution | relative binding score
I105E | 3.03%
T119F | -11%
R113C | 7.91%
E151T | 25.4%
H122P | 4.61%
Q31N | -1.15%
S11Q | 27.5%
T39A | 15.3%
V44L | 5.96%

Sample 3 — target: CCNA2, cyclin fold, Cln2 fusion (human); method: yeast growth competition, sequencing; medium: yeast; notes: strong parent motif; relative to: not given; direction: higher = stronger binding
Starting sequence: CDKN1B docking peptide (human); PSACRNLFGPVDH; partner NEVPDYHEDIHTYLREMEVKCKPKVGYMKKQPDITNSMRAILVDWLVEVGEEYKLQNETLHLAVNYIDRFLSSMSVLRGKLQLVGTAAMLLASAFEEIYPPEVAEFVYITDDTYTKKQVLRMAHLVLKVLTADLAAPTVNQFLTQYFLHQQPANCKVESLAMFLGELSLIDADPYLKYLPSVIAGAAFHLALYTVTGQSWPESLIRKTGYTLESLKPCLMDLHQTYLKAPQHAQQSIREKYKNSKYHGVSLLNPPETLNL
Substitution | normalised enrichment score
N6T | 1.69
H13I | 4.03
C4R | 5.99
L7D | 0.237
F8A | 0.499
P1N | 3.97
R5A L7A | -0.354
G9D | 1.93
D12T | 3.72
F8G | -0.0859
P1Y | 3.57

Further values, each from its own experiment
Molecule | target | assay | system | setting | how to read | measurement | result
PhoQ, residues 284 288 289 292 302 303 TTSMTC | PhoP, residues 12 14 15 18 19 NQAHL (Escherichia coli, UniProt P23836) | Sort-seq, item: YFP reporter | E. coli | PhoQ-PhoP variant library, together with: 10 µM Mg2+ | relative to: high Mg2+ state, higher = stronger signaling | fold induction | 1.27

A few entries again (sample 1):
Oligonucleotide | 7-mer Z-score
AGAGGCC | -0.0627
AGUUUCC | -0.373
GCAAGGU | -0.0428
UGACUUU | -0.3
CUUUGCG | -0.411
